# Published values gathered from unrelated publications.
# Lines come from different studies, so protocols differ. “And” joins repeats or separate records; there may be more than shown. Numbers after ± are the reported error.
# rep main protease: Replicase polyprotein 1ab, main protease (rep, Severe acute respiratory syndrome coronavirus 2, UniProt P0DTD1)
SMILES,target,test,setting,scale,quantity,result
N[C@H](C[Se][Se]C[C@@H](N)C(=O)O)C(=O)O,rep main protease,"enzyme activity, inhibitor",40 µM,,inhibition,54.6% and 54.4%
CC(C)=CCc1c(O)cc(O)c2c(=O)cc(-c3ccc(O)cc3)oc12,"Replicase polyprotein 1ab, nsp13 helicase (rep, Severe acute respiratory syndrome coronavirus 2, UniProt P0DTD1)",inhibitor,,baseline: ATPase IC50 over unwinding IC50,selectivity ratio,~20 fold
COc1cccc2[nH]c(C(=O)N[C@@H](CC(C)C)C(=O)N[C@H](C#N)C[C@@H]3CCNC3=O)cc12,rep main protease,"enzyme activity, inhibitor",concentration not given,,reactivation half-life,4 h
CCc1ccccc1NC(=S)N/N=C/c1ccc(O)cc1O,rep main protease,thermal shift,"20 µM, 2 h",,melting temperature,56.1 °C
C[C@](C(=O)NC1CCC(F)(F)CC1)(c1cncnc1)N(C(=O)[C@H](F)Cl)c1ccc(OC(F)(F)F)cc1,rep main protease,"enzyme activity, inhibitor",0.103 µM,,inhibition,85.5%
Cc1ccc(OCCN(C)C)cc1C(=O)N[C@H](C)c1cc(-c2ccco2)nc2ccccc12,"Replicase polyprotein 1ab, papain-like protease (rep, Severe acute respiratory syndrome coronavirus 2, UniProt P0DTD1)","reporter gene, cell-based",,,GFP/mCherry signal ratio,12.8 and 39.7 and 45.6 and 0.467 and 18.1 and 0
O=C(Oc1cncc(Cl)c1)c1ccc2cc[nH]c2c1,rep main protease,"inhibitor, biochemical",,,kinact/Ki,4400 M⁻¹ s⁻¹
O=C(OCC(=O)c1ccc([N+](=O)[O-])cc1)/C(=C/c1ccc(Cl)cc1)NC(=O)c1ccccc1,rep main protease,"enzyme activity, inhibitor",1.5 µM,,Vmax,24.3 ± 2.7 RFU/s
CC[C@@H](C)[C@@H](C(=O)OC)n1[se]c2ccccc2c1=O,rep main protease,"enzyme activity, inhibitor","40 µM, mean of repeats",,inhibition,102%
CNC(=O)C[C@H](Cc1ccc(F)cc1)NC(=O)[C@@H](Cc1ccc(Cl)cc1Cl)NC(=O)[C@H](N)Cc1ccccc1[N+](=O)[O-],rep main protease,3CL protease activity,1 µM,,remaining activity,33.2%
CC(=O)N[C@@H](Cc1ccc(O)cc1)C(=O)N[C@@H](CC(=O)O)C(=O)NCCC(=O)N[C@@H](Cc1ccccc1)C(=O)N[C@@H](Cc1ccc(O)cc1)C(=O)NCCC(=O)N[C@@H](Cc1ccc(O)cc1)C(=O)N[C@H](C(=O)N[C@H](C(=O)N[C@@H](Cc1ccccc1)C(=O)N[C@@H](Cc1c[nH]cn1)C(=O)N[C@H](C(=O)N[C@@H](C)C(=O)N[C@H](C(N)=O)[C@@H](C)O)C(C)C)[C@@H](C)O)C(C)C,rep main protease,"binding, SPR",pH 7.6,,kon,2.31e+07 M⁻¹ s⁻¹
COc1cc2c(cc1OC)-c1c(OC)c(OC)cc3c1[C@H](C2)N(C)CC3,rep main protease,"STD NMR, measured: proton H-13",,baseline: H-8 signal,relative STD saturation,61.5%
CNC(=O)C[C@H](Cc1ccc(F)cc1)NC(=O)[C@@H](Cc1ccc(Cl)cc1Cl)NC(=O)[C@H](N)Cc1ccccc1C#N,rep main protease,3CL protease activity,0.04576 µM,,remaining activity,33.5%
CC1CC(c2ccc(-c3nnn[nH]3)cc2)=NN1c1ccc(C#N)c(Cl)c1 (centres unmarked),"Replicase polyprotein 1ab, nsp14 methyltransferase (rep, Severe acute respiratory syndrome coronavirus 2, UniProt P0DTD1)",,,,lipophilic ligand efficiency,1.4

# Repeated from above:
SMILES,target,test,setting,scale,quantity,result
N[C@H](C[Se][Se]C[C@@H](N)C(=O)O)C(=O)O,rep main protease,"enzyme activity, inhibitor",40 µM,,inhibition,54.6% and 54.4%
